Measured values collected from several papers.
Each numbered part is a random draw from the data of one study; scales do not carry over between parts. Several values in a cell are separate wells, animals, samples, runs or records.

Block 1 — technique: Incucyte 3D growth; tested at: 30 µM; reading: higher = more growth; measurement: spheroid area
SMILES: CC(C)(C(=O)O)[C@H](NC(=O)Cc1cccc(I)c1)c1ccc2oc(=O)[nH]c2c1
KP-4; 186 h: 2.76e+07 a.u. and 3.22e+07 a.u. and 2.75e+07 a.u. and 3.85e+07 a.u. and 2.67e+07 a.u. and 1.75e+07 a.u.
IPC-298; 90 h: 2.62e+07 a.u. and 2.36e+07 a.u. and 2.76e+07 a.u. and 3.03e+07 a.u. and 2.74e+07 a.u. and 3.26e+07 a.u.
NCI-H1437; 144 h: 2.96e+07 a.u. and 3.32e+07 a.u. and 3.38e+07 a.u. and 4.19e+07 a.u. and 3.28e+07 a.u. and 3.72e+07 a.u.

Block 2 — cell line: mouse MPNST tumor cells; technique: high-content immunofluorescence imaging; refers to: nuclear SOX9; tested at: 10 µM; time: 12 h; notes: mean of 2 replicates; reference: DMSO control; reading: higher = more nuclear SOX9; measurement: nuclear SOX9 intensity
COc1ccccc1CN[C@H]1CCCN[C@H]1c1ccccc1: 115 % of DMSO
O=C1NC(=O)c2cc(Nc3ccc(F)cc3)c(Nc3ccc(F)cc3)cc21: 149 % of DMSO
CCOC(=O)[N-]c1c[n+](N2CCOCC2)no1: 108 % of DMSO
Cc1[nH]c(=O)c(C#N)cc1-c1ccncc1: 109 % of DMSO and 98.5 % of DMSO
Nc1[nH]nc2nnc(-c3c(-c4ccccc4)nn4ccccc34)cc12: 88.9 % of DMSO

Block 3 — read-out: ligand displacement; tested at: 10 µM; measurement: inhibition
Target: Beta-3 adrenergic receptor (ADRB3, Homo sapiens, UniProt P13945)
Sequence of UniProt P13945 (whole entry, looked up): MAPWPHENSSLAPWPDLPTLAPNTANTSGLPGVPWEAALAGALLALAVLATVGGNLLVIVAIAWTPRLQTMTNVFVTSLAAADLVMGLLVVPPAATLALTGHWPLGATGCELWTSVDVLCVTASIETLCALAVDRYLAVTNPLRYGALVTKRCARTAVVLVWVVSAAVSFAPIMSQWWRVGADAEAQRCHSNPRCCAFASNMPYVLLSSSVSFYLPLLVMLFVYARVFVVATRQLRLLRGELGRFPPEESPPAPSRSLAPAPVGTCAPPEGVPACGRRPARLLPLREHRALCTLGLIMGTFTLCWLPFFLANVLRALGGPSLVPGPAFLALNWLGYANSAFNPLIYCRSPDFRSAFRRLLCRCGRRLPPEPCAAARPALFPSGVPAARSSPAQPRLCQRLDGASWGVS
NS(=O)(=O)c1cc(NC(=O)Cc2ccccc2)ccc1Oc1cccc(Cl)c1: 46.3%
COc1cc(C(=O)O)ncc1C#Cc1ccccc1NS(=O)(=O)c1cccc2c(N(C)C)ccnc12: -19%
N#CC1(c2ccccn2)CCN(Cc2cc(C(=O)N3CCCC3)c(=O)n3ccccc23)CC1: 17.4%
NC(=O)c1ccc2nc(-c3ccc(C4(N)CCC4)cc3)c(-c3ccccc3)n2n1: 11.4%
CC[C@H](CC(=O)O)n1c(=O)c2ncccc2n(Cc2cn(C)c3cc(C)cc(C)c23)c1=O: -6.54%
CCOc1ccc(S(=O)(=O)Nc2ccc(Cl)cc2C#Cc2cnc(C(=O)O)cc2OC)c2ncccc12: -35%
CCC(F)(F)c1cc(N2CCC(S(C)(=O)=O)CC2)nc2sc(C(N)=O)c(N)c12: 18%
CN(C)c1ncnc(-c2ccc3nc(Nc4cc(CN5CCN(C(=O)CC(F)(F)F)CC5)ccn4)[nH]c3c2)c1Cl: 4.42%
Cc1cc(Nc2nccc(C)n2)cc(-c2cnc([C@@]3(O)CC[C@H](C(=O)O)C(C)(C)C3)s2)c1: 3.43%
CN(C)CC#Cc1ccc(OCCCc2sc(N3CCc4cccc(C(=O)Nc5nc6ccccc6s5)c4C3)nc2C(=O)O)c(F)c1: 3.53%
CNC(=N)NCCC[C@H](NC(=O)[C@H](CC(C)C)NC(=O)NNC(=O)[C@H](Cc1ccccc1)NC(=O)[C@H](CO)NC(=O)[C@H](CC(N)=O)NC(=O)[C@@H](Cc1ccncc1)NC(=O)[C@H](N)Cc1ccc(O)cc1)C(=O)N[C@@H](Cc1ccccc1)C(N)=O: 7.1%
COc1cc(-c2cn(C3CCc4c(F)cccc4N(CC(F)(F)F)C3=O)nn2)ccc1-n1cnc(C)c1 (stereo not drawn): 15.7%
Nc1nc(NCc2ccccc2)nc(-c2ccccc2CO)n1: 14.8%
O=C(NCCCC1CCCCC1)c1ccc(CNC(=O)c2cnn(-c3ccccc3)c2C(F)(F)F)cc1: 21.7%
CC(=O)N1CCC(c2ccc(C(=O)NC3=NCCN3)cc2C(F)(F)F)CC1: 8.52%

Block 4 — host: mouse; sample: microsomes or S9; tested at: 2 µM; time: 0.5 h; measurement: remaining compound
COC(=O)c1c[nH]c(S(=O)(=O)Cc2csc(Br)c2)n1: 60.8%
COC(=O)c1c(NS(C)(=O)=O)sc2c1CCCC2: 3.37%
Cc1cc(C(=O)Nc2nnc(Cc3cccs3)o2)n(C)n1: 81.3%

Single results of other studies — tested at: 100 µM; time: 60 h
O=C1CC2(CCCC2)CC(=O)N1CCCCN1CCN(c2ncccn2)CC1
viability (HaCaT): 117%

O=C(O)c1cc(/N=N/c2ccc(O)c(C(=O)O)c2)ccc1O
viability (HaCaT): 144%

C=CC(=O)N1CCC[C@@H](n2nc(-c3ccc(Oc4ccccc4)cc3)c3c(N)ncnc32)C1
viability (A-375): 4.81%

CCOC(=O)CC(=O)N1CCSC1COc1ccccc1OC (stereo not drawn)
viability (A-375): 104%

Some of these lines once more (block 2):
O=C1NC(=O)c2cc(Nc3ccc(F)cc3)c(Nc3ccc(F)cc3)cc21: 149 % of DMSO
COc1ccccc1CN[C@H]1CCCN[C@H]1c1ccccc1: 115 % of DMSO
CCOC(=O)[N-]c1c[n+](N2CCOCC2)no1: 108 % of DMSO
Nc1[nH]nc2nnc(-c3c(-c4ccccc4)nn4ccccc34)cc12: 88.9 % of DMSO
Cc1[nH]c(=O)c(C#N)cc1-c1ccncc1: 109 % of DMSO and 98.5 % of DMSO
